Assay results collected from several papers.
Each line is one published result; not all experiments were run side by side. “And” joins repeats or separate records; there may be more than shown.
PIK3CG: Phosphatidylinositol 4,5-bisphosphate 3-kinase catalytic subunit gamma isoform (PIK3CG, Homo sapiens, UniProt P48736)

SMILES | target | test | conditions | how to read | quantity | value
CN(C)[C@H]1C[C@@]23CC[C@@]4(O2)C(=CC[C@]2(C)[C@@H](c5ccc6ccncc6c5)CC[C@H]24)C=C3[C@@H](O)[C@@H]1O | PIK3CG | ATP probe labelling, inhibitor, KiNativ profiling | 1 µM | – | inhibition | -2.5%
O=C(N[C@@H]1c2ccccc2C[C@H]1N1CCCC1)c1ccc(-c2ccnc3[nH]ccc23)nc1 | PRKCD (Homo sapiens, UniProt Q05655) | binding, competition with immobilised ligand | 3 µM | – | remaining binding | 5.6%
O=C1NC(=O)c2c1c1cc(F)c[n+]3c1c1c2c2cc(O)ccc2[n]1[Ru-4]312([N]=C=S)[S+]3CC[S+]1CC[S+]2CC3 (stereo not shown) | ROS1 (Homo sapiens, UniProt P08922) | enzyme activity | 100 nM, human enzyme, added: 10 µM ATP | baseline: untreated | remaining activity | 112%
CC[C@H](C)[C@@H]1NC(=O)[C@H](CC(C)C)NC(=O)CNC(=O)[C@H](CCCNC(=N)N)NC(=O)[C@H](Cc2c[nH]c3ccccc23)NC(=O)[C@H](CCSC)NC(=O)[C@H](CO)NC(=O)[C@H](CCC(=O)O)NC(=O)[C@H](Cc2ccccc2)NC(=O)[C@H](CC(=O)O)NC(=O)[C@H]([C@@H](C)O)NC(=O)CNC(=O)[C@H](CCC(=O)O)NC(=O)[C@H]([C@@H](C)O)NC(=O)CNC(=O)[C@H](CC(=O)O)NC1=O | MDM2 (Homo sapiens, UniProt Q00987) | MDM2-ligand binding, inhibitor, AlphaLISA competition | 0.7812 µM, added: GST-tagged MDM2 ligand | lower = stronger inhibition | AlphaLISA signal | 4710 a.u. and 4840 a.u. and 4780 a.u.
O=C(O)c1ccc(-c2nc(-c3ccccc3Cl)c3sccn23)cc1 | kappa opioid receptor | radioligand binding | 10 µM | baseline: control | specific binding | 88.2% and 90.9%
C[C@H](NCc1ccc(-c2ccc(C(F)(F)F)cc2)cc1)C(N)=O | PIK3CG | cell-free assay, competition with immobilised ligand | 1 µM | – | inhibition | 0%
CC(C)[C@H]1NC(=O)C[C@H]2/C=C/CCSSC[C@@H](NC1=O)C(=O)N[C@H](Cc1cccc3ccccc13)C(=O)NCC(=O)O2 | SRC (Homo sapiens, UniProt P12931) | enzyme activity, inhibitor | 10 µM | – | inhibition | 3.4%
CN(C)CCCSC(=S)N1CCN(C(=O)/C=C/c2coc3ccccc3c2=O)CC1 | Nucleoprotein (N, Tomato spotted wilt virus, UniProt P25999, R94A/Y184A) | binding, microscale thermophoresis | 0.4883 µM | dose series | MST response | 0.363 a.u.
N[C@H](C(=O)N1CCCC1)C1CCN(c2nccc3c(-c4ncc(Cl)cc4Cl)cccc23)CC1 | PADI4 (Homo sapiens, UniProt Q9UM07) | thermal shift | 0.9507 µM | – | melting temperature | 56.5 °C and 57 °C
CCCO[C@H]1[C@H](O)[C@@H](N)[C@@H](O[C@H]2[C@H](O[C@@H]3O[C@H](CO)[C@@H](O[C@H]4O[C@@H](CN)[C@@H](O)[C@H](O)[C@H]4N)[C@H]3O)[C@@H](O)[C@H](N)C[C@@H]2N)O[C@@H]1CO | SLC6A2 (Homo sapiens, UniProt P23975) | radioligand binding | 10 µM, 1% DMSO | – | specific binding | 8%
CCOC(=O)[C@@H]1Cc2c(cc([N+](=O)[O-])cc2[N+](=O)[O-])[C@H](O)[C@]12C(=O)Nc1ccc(Br)cc12 | BRAF (Homo sapiens, UniProt P15056, V600E) | binding, competition with immobilised ligand | 0.1 µM | – | remaining binding | 72%
CS(C)(=O)=Nc1ccc(-c2ccc(-c3nc4cc(O[C@@H]5CO[C@H]6[C@@H]5OC[C@H]6O)[nH]c4cc3F)cc2)cc1 | ULK3 (Homo sapiens, UniProt Q6PHR2) | enzyme activity, inhibitor | 10 µM | – | inhibition | -22%
Cc1ccc(N2CC3CCC(C2)N3C)cc1C(=O)N[C@H](C)c1cc(-c2cnn(C)c2)nc2ccccc12 | USP2 (Homo sapiens, UniProt O75604) | enzyme activity | 30 µM, 0.5 h | – | remaining activity | 100%
